Results pooled from the literature.
Numbered parts are unrelated; each lists some results of a single study. Positions count from the first letter of the parent shown.

Block 1
Target: CCNF, cyclin fold, Cln2 fusion (human)
Technique: yeast growth competition, sequencing
Sample: yeast
Setting: strong parent motif
Reference: not given
Reading: higher = stronger binding
Starting sequence: SLBP docking peptide (human); ARYKRKLLINDFG
Change	normalised enrichment score
N10Y	2.97
R5V	1.89
R2A	1.25
L7I	1.02
F12N	1.45
R5A L7A	1.17
R5T	0.413
K6P	-0.0258
F12C	1.65
G13L	0.482
F12P	1.16
N10R	1.19
R5L	2.44

Block 2
Target: ABI1, truncated, D143A, DHFR fusion (Arabidopsis thaliana)
Technique: DHFR PCA, deep sequencing
Sample: yeast
Setting: methotrexate growth selection, single substitutions
Together with: (+)-ABA 1.4 µM
Reference: wild-type fitted maximum
Reading: higher = stronger binding
Starting sequence: PYL1, truncated, DHFR fusion (Arabidopsis thaliana); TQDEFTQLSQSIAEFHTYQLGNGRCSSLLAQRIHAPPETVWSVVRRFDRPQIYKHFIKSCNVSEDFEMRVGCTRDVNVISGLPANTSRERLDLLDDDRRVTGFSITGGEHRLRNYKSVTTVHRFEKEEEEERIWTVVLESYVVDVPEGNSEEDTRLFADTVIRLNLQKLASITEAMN; partner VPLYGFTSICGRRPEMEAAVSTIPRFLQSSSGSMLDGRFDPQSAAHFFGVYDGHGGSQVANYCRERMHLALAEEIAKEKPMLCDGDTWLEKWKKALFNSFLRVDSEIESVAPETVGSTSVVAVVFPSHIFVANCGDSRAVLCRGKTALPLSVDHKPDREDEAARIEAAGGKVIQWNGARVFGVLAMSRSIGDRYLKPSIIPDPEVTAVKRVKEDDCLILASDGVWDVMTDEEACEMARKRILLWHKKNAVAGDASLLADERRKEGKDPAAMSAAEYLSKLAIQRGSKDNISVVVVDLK
Change	relative binding score [%]
E151Q	42.8
A158Q	0.925
S9I	16.6
D97S	56.4
Q19H	65.1
I172D	-12.3
L138E	-7.44

Block 3
Substance: PhoQ, residues 284 288 289 292 302 303 TAVSDG
Technique: Sort-seq
Refers to: YFP reporter
Sample: E. coli
Setting: PhoQ-PhoP variant library
Together with: 10 µM Mg2+
Reference: high Mg2+ state
Reading: higher = stronger signaling
target	fold induction
PhoP, residues 12 14 15 18 19 AYFRS (Escherichia coli, UniProt P23836)	7.46
PhoP, residues 12 14 15 18 19 SFCSL (Escherichia coli, UniProt P23836)	7
PhoP, residues 12 14 15 18 19 HHYTI (Escherichia coli, UniProt P23836)	0.894

Block 4
Target: Centromere-binding protein 1, full length, His-tagged (CBF1, Saccharomyces cerevisiae, UniProt P17106, residues 1-351)
UniProt P17106, sequence (whole entry, looked up): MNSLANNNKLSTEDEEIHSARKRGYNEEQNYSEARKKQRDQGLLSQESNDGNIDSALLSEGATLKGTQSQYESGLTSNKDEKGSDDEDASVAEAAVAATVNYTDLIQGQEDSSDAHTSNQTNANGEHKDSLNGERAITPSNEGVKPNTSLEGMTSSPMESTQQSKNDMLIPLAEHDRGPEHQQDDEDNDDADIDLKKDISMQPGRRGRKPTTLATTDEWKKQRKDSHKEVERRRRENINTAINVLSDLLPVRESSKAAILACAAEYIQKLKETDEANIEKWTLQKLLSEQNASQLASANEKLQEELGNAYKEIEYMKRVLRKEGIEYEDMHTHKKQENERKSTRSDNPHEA
Technique: competition protein-binding microarray
Molecule type: double-stranded DNA, one strand shown
Sample: in vitro
Concentration: 2 µM
Setting: whole 60-bp probe, lowest competitor level
Together with: Pho4 competitor, 0.05 µM
Reading: higher = stronger binding
All sequences stand within: … GTCTTGATTCGCTTGACGCTGCTG
Strand	fluorescence intensity
CTTTCCCGATCTTCTCACGTGTTTTTAGCACATTTG	1330 a.u.
CGGGGTTAAGTTTGCTATGTGGGTGGCTTGCAGCAG	74.2 a.u.
CCCTGCTGCCAGTCCCACGTGCAGACGCACCTGCAG	626 a.u.
CTAACGAAGGTTTGTCTTGTGGGTGACAAGCCAAGT	68.4 a.u.
ACTGCTGTCTATAACGGCGTGACGGGTTTAGCATAA	144 a.u.
AAGTTCATATATTTGCACGTGCTGTTAGCTCTTTTC	2310 a.u.
ATCTTATTAATTCATGGAAGGCATTGAACTCAACAG	74 a.u.
CATACCCAACCTTGCGATGTGGGTGAAGATATTTGT	71.6 a.u.
CTTTCCCGATCTTGCGCGGTGGGTGTAGCACATTTG	68.2 a.u.
AAATTACTAAGTTGTCGGGTGGGTGACGCCGTATGA	58.4 a.u.

A few entries again (block 1):
Change	normalised enrichment score
R5T	0.413
K6P	-0.0258
F12C	1.65
